# Results collected from several papers.
# Numbered parts are unrelated; each lists some results of a single study.
# UniProt P12390, sequence (whole entry, looked up): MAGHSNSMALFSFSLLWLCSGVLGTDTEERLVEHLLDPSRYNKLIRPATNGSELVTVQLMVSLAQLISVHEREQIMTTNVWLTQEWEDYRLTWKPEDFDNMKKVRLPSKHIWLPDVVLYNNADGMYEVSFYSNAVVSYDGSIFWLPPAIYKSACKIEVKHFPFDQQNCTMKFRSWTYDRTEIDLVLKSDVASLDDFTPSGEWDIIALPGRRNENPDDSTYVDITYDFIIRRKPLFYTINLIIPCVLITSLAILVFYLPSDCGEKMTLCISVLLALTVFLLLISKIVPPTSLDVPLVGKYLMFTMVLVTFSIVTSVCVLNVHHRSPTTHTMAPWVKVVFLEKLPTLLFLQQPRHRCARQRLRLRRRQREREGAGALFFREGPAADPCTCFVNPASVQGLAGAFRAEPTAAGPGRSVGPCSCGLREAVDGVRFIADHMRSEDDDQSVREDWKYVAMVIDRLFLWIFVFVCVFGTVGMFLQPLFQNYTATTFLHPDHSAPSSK
# UniProt P12389, sequence (whole entry, looked up): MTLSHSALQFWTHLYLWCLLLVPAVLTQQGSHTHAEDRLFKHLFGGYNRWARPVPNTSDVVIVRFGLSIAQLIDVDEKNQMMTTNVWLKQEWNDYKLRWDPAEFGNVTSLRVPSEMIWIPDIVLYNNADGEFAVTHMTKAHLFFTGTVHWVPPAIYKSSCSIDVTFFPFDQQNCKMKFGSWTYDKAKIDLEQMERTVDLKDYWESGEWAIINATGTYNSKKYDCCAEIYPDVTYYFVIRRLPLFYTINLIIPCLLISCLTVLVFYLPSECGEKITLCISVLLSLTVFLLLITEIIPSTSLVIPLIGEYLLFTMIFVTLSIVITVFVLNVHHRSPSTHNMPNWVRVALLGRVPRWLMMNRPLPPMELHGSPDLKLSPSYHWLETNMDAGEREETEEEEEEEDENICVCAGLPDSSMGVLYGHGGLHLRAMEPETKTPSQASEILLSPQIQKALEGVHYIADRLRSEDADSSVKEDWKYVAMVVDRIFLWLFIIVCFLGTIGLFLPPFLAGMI

# Study 1
# Target: Neuronal acetylcholine receptor; alpha9/alpha10 (Homo sapiens, UniProt Q9GZZ6+Q9UGM1)
# UniProt Q9GZZ6, sequence (whole entry, looked up): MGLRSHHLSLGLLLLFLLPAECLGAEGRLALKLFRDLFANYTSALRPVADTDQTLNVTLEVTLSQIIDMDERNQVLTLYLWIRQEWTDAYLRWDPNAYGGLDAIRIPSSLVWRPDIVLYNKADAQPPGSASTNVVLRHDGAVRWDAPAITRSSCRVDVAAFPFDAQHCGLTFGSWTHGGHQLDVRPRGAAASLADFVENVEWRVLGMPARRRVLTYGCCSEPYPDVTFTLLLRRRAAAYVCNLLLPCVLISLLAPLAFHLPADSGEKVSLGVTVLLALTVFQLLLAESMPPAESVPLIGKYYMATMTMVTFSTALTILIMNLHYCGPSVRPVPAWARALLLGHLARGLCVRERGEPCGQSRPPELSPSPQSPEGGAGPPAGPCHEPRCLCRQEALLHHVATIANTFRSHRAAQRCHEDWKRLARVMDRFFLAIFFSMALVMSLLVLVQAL
# UniProt Q9UGM1, sequence (whole entry, looked up): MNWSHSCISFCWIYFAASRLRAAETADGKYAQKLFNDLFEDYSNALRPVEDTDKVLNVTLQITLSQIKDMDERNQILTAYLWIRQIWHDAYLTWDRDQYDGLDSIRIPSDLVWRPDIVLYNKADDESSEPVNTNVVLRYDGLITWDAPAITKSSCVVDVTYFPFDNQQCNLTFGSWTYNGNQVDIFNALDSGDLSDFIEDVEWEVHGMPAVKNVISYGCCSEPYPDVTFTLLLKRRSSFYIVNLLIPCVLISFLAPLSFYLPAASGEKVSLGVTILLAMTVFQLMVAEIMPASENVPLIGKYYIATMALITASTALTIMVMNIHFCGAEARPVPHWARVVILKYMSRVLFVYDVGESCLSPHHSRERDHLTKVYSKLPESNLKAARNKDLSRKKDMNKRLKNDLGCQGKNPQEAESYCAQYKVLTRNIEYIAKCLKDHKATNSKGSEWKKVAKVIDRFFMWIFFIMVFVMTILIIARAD
Compound,IC50 [nM]
N=C(N)NCCC[C@@H]1NC(=O)[C@H](Cc2ccc(O)cc2)NC(=O)[C@H](CCCNC(=N)N)NC(=O)[C@@H]2CSSC[C@H](NC(=O)CN)C(=O)N[C@@H](CSSC[C@@H](C(=O)N[C@@H](Cc3ccc(O)cc3)C(=O)O)NC1=O)C(=O)N[C@@H](CO)C(=O)N[C@@H](CC(=O)O)C(=O)N1CCC[C@H]1C(=O)N[C@@H](CCCNC(=N)N)C(=O)N2,2.1
N=C(N)NCCC[C@H](NC(=O)[C@@H]1CSSC[C@@H]2NC(=O)[C@@H](NC(=O)CN)CSSC[C@H](NC(=O)[C@H](CCCNC(=N)N)NC(=O)[C@@H]3CCCN3C(=O)[C@H](CC(=O)O)NC(=O)[C@H](CO)NC2=O)C(=O)N[C@@H](CCCNC(=N)N)C(=O)N[C@@H](Cc2ccc(O)cc2)C(=O)N[C@@H](CCCNC(N)=O)C(=O)N1)C(=O)O,> 1000
N=C(N)NCCC[C@H](NC(=O)[C@@H]1CSSC[C@@H]2NC(=O)[C@@H](NC(=O)CN)CSSC[C@H](NC(=O)[C@H](CCCNC(=N)N)NC(=O)[C@@H]3CCCN3C(=O)[C@H](CC(=O)O)NC(=O)[C@H](CO)NC2=O)C(=O)N[C@@H](CCCNC(=N)N)C(=O)N[C@@H](Cc2ccc(O)cc2)C(=O)N[C@@H](CCNC(=N)N)C(=O)N1)C(=O)O,213

# Single results of other studies
Structure (SMILES),target,assay,setting,endpoint,result
CC[C@H](C)[C@@H]1NC(=O)[C@@H]2CCCN2C(=O)[C@H](CO)NC(=O)[C@H](CCSC)NC(=O)[C@H](C)NC(=O)[C@H](C)NC(=O)[C@@H]2CSSC[C@H](NC(=O)CN)C(=O)N[C@@H](CSSC[C@@H](C(N)=O)NC1=O)C(=O)N[C@@H](CO)C(=O)N[C@@H](Cc1cnc[nH]1)C(=O)N1CCC[C@H]1C(=O)N[C@@H](C(C)C)C(=O)N2,"Neuronal acetylcholine receptor; alpha2/beta2 (Rattus norvegicus, UniProt P12389+P12390)",antagonist,,IC50,> 10000 nM
CC(=O)N[C@@H](CC(=O)O)C(=O)N[C@@H](CCC(=O)O)C(=O)N[C@@H](Cc1ccc(OP(=O)(O)O)cc1)C(=O)N[C@@H](CC(=O)O)C(=O)N[C@@H](CC(=O)O)C(=O)N1CCC[C@H]1C(=O)N[C@@H](Cc1ccccc1)C(N)=O,"Secreted effector protein, N-terminal domain (Yersinia pestis, UniProt O68720)","binding, ITC",,ΔH,-16.5 kcal/mol
CC[C@H](C)[C@@H]1NC(=O)[C@H](CCC(=O)O)NC(=O)[C@@H]2CCCN2C(=O)[C@H](Cc2cnc[nH]2)NC(=O)[C@H](CC(=O)O)NC(=O)[C@H](C(C)C)NC(=O)[C@H](CC(N)=O)NC(=O)[C@@H]2CSSC[C@H](NC(=O)CN)C(=O)N[C@@H](CSSC[C@@H](C(N)=O)NC1=O)C(=O)N[C@@H](CO)C(=O)N[C@@H](Cc1cnc[nH]1)C(=O)N1CCC[C@H]1C(=O)N[C@@H](C)C(=O)N2,"Neuronal acetylcholine receptor; alpha9/alpha10 (Homo sapiens, UniProt Q9GZZ6+Q9UGM1)",,cell-based,IC50,> 10000 nM

# A few entries again (study 1):
Compound,IC50 [nM]
N=C(N)NCCC[C@H](NC(=O)[C@@H]1CSSC[C@@H]2NC(=O)[C@@H](NC(=O)CN)CSSC[C@H](NC(=O)[C@H](CCCNC(=N)N)NC(=O)[C@@H]3CCCN3C(=O)[C@H](CC(=O)O)NC(=O)[C@H](CO)NC2=O)C(=O)N[C@@H](CCCNC(=N)N)C(=O)N[C@@H](Cc2ccc(O)cc2)C(=O)N[C@@H](CCNC(=N)N)C(=O)N1)C(=O)O,213
